Measured values from different studies.
Numbered parts are unrelated; each lists some results of a single study. “And” joins repeats or separate records; there may be more than shown.
Sequence of UniProt Q5S007 (whole entry, looked up): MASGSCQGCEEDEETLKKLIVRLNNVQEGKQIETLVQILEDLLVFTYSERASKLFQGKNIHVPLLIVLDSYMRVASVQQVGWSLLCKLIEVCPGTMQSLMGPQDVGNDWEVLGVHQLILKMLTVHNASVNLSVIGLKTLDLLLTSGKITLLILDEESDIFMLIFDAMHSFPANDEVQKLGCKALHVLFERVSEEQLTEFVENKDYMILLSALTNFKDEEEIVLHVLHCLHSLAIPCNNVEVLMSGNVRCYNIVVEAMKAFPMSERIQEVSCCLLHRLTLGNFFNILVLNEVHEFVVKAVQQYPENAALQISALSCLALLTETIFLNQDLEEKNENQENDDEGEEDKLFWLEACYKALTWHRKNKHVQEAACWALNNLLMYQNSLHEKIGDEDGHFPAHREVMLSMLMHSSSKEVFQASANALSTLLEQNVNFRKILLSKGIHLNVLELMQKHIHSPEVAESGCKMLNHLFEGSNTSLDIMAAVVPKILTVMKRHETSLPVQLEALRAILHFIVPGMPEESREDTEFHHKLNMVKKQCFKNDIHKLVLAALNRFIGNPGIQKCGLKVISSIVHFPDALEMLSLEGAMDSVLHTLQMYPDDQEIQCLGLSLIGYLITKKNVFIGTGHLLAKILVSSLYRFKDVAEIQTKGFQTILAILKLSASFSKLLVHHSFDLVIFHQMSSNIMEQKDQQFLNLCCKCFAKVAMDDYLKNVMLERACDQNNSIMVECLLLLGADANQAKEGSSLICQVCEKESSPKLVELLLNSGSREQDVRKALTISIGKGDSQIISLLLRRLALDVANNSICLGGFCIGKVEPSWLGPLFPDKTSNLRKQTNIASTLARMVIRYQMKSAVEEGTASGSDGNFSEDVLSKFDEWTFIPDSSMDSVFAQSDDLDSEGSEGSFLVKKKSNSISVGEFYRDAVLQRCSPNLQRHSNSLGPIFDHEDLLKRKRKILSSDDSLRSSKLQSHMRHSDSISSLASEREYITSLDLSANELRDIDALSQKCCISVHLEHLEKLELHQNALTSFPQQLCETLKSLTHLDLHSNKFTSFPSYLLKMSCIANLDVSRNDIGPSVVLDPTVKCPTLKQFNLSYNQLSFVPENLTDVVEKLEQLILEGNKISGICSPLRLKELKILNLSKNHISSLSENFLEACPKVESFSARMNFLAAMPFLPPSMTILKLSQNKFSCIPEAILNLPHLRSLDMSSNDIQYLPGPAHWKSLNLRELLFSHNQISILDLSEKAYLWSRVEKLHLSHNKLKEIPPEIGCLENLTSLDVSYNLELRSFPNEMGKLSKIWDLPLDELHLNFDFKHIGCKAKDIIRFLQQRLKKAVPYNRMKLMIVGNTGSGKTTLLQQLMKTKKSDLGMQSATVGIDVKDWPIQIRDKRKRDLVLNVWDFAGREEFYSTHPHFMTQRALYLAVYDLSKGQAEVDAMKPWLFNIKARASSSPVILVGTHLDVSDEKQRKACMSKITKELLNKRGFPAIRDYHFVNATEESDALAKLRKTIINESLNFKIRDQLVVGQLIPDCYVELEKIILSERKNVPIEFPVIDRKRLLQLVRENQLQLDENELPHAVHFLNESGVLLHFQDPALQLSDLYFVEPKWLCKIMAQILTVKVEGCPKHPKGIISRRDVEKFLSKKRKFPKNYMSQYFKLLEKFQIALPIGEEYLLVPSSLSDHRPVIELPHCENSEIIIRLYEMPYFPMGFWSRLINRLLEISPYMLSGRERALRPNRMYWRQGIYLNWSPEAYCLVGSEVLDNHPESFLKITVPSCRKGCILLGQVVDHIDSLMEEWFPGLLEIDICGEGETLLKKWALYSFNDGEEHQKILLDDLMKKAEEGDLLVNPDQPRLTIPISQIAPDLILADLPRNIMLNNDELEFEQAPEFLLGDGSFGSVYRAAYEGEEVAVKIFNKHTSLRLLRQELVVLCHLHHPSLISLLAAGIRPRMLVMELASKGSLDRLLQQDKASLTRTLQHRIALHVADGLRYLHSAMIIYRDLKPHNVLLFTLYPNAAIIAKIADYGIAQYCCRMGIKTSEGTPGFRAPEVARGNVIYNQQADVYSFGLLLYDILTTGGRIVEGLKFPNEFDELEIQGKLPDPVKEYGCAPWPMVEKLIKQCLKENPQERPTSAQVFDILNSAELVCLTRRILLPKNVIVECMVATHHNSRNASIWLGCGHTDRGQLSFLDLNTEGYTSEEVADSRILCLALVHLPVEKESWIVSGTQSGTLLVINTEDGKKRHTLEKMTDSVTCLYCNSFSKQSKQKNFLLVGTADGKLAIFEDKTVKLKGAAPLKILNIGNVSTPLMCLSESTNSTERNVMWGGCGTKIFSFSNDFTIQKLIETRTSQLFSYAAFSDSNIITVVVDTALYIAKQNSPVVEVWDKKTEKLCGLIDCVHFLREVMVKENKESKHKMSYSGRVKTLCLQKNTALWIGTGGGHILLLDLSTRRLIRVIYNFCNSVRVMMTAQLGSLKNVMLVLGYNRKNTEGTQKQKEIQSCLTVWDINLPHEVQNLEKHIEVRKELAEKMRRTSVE
Sequence of UniProt Q9UM73 (whole entry, unmodified, looked up): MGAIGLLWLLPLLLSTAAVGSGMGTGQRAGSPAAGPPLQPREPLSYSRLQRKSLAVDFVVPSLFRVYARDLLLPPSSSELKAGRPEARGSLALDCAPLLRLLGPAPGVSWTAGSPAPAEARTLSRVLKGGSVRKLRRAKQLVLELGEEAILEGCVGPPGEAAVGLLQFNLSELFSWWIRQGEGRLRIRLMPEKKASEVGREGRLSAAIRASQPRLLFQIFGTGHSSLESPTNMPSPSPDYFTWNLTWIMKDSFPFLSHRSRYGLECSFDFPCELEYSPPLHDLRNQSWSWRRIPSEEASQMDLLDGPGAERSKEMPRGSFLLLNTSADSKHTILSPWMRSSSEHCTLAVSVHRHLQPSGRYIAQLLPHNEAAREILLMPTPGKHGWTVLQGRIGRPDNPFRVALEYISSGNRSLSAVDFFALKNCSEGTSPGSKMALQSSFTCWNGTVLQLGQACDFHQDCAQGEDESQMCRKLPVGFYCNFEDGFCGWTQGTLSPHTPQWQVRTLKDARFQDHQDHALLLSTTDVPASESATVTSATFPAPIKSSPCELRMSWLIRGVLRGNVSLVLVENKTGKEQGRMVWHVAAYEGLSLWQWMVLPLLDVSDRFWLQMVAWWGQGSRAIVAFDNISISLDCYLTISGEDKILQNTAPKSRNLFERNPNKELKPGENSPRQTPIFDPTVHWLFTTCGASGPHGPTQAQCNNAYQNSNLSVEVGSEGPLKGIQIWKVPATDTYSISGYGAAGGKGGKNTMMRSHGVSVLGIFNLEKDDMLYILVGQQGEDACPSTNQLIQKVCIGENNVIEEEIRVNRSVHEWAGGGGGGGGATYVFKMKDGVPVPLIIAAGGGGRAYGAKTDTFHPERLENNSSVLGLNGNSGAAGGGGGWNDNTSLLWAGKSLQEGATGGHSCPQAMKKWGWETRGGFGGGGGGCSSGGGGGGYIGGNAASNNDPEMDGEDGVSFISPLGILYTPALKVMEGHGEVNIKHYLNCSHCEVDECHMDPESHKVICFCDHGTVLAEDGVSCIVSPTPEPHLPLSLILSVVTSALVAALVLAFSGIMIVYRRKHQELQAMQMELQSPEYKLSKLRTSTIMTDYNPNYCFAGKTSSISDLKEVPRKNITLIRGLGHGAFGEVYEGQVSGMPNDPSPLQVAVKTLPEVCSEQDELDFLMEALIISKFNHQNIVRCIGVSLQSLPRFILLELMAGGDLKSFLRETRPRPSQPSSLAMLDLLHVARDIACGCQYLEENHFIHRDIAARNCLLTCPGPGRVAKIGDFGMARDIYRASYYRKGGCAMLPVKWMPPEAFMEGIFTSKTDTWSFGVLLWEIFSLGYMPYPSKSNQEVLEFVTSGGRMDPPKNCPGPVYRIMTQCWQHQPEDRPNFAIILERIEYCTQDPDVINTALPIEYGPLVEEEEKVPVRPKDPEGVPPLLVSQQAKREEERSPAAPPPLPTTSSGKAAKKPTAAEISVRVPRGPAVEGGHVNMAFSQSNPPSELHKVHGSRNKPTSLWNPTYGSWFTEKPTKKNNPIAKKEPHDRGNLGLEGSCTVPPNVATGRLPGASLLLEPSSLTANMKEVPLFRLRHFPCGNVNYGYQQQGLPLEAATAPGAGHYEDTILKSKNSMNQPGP
Sequence of UniProt Q13705 (whole entry, looked up): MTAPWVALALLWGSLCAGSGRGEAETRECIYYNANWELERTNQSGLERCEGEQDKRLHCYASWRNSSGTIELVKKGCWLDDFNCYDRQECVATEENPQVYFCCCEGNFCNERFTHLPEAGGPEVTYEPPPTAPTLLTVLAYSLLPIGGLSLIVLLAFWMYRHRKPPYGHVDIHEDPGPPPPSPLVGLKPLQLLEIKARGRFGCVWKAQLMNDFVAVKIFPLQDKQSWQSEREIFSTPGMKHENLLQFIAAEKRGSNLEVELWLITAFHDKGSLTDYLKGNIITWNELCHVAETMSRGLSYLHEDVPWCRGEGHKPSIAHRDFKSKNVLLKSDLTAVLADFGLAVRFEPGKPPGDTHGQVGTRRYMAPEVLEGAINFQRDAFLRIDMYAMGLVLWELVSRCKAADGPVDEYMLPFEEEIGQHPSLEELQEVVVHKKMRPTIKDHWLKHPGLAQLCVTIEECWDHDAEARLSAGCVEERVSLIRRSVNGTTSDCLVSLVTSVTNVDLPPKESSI

Study 1 — method: phase 2a trial; host: idiopathic pulmonary fibrosis patients
Compound: CC(C)n1cnc(-c2ccc(F)cc2)c1-c1ncc(C(=O)Nc2ccc(N3CCN(C)CC3)cc2)[nH]1
setting | patients with increased interferon-gamma [%]
30 mg once daily, grade 5 | 0
all dose arms pooled, grade 5 | 0
30 mg once daily, grade 2 | 0

Study 2 — read-out: cell-free assay; method: competition with immobilised ligand; concentration: 1 µM
SMILES: CCS(=O)(=O)c1cc2cc(C[C@@](O)(CC(C)(C)c3ccc(F)cc3C(N)=O)C(F)(F)F)[nH]c2cn1
target | remaining binding [%]
Tyrosine-protein kinase Mer (MERTK, Homo sapiens, UniProt Q12866) | 100
Tyrosine-protein kinase ITK/TSK (ITK, Homo sapiens, UniProt Q08881) | 96
Serine/threonine-protein kinase PAK 5 (PAK5, Homo sapiens, UniProt Q9P286) | 100
Serine/threonine-protein kinase LATS2 (LATS2, Homo sapiens, UniProt Q9NRM7) | 100
Eukaryotic translation initiation factor 2-alpha kinase 1 (EIF2AK1, Homo sapiens, UniProt Q9BQI3) | 80
Non-receptor tyrosine-protein kinase TYK2, JH2 (TYK2, Homo sapiens, UniProt P29597) | 83
ALK tyrosine kinase receptor (ALK, Homo sapiens, UniProt Q9UM73, L1196M) | 100
Activin receptor type-2B (ACVR2B, Homo sapiens, UniProt Q13705) | 100
Homeodomain-interacting protein kinase 4 (HIPK4, Homo sapiens, UniProt Q8NE63) | 100
Ephrin type-B receptor 2 (EPHB2, Homo sapiens, UniProt P29323) | 95
Receptor-type tyrosine-protein kinase FLT3 (FLT3, Homo sapiens, UniProt P36888, K663Q) | 83
Mitogen-activated protein kinase kinase kinase 12 (MAP3K12, Homo sapiens, UniProt Q12852) | 83
BMP-2-inducible protein kinase (BMP2K, Homo sapiens, UniProt Q9NSY1) | 69
Mitogen-activated protein kinase kinase kinase 15 (MAP3K15, Homo sapiens, UniProt Q6ZN16) | 57
Mitogen-activated protein kinase kinase kinase kinase 1 (MAP4K1, Homo sapiens, UniProt Q92918) | 100

Study 3 — cell line: HaCaT; concentration: 100 µM; time: 18 h
Structure (SMILES) | viability
CNC(=O)c1ccccc1Sc1ccc2c(/C=C/c3ccccn3)n[nH]c2c1 | 24.5%
CCn1c(=O)c2c(nc(/C=C/c3ccc(OC)c(OC)c3)n2C)n(CC)c1=O | 58.7%
CN(C)c1ccc(O)c2c1C[C@H]1C[C@H]3[C@H](N(C)C)C(O)=C(C(N)=O)C(=O)[C@@]3(O)C(O)=C1C2=O | 108%

Study 4 — host: human; medium: microsomes or S9; concentration: 2 µM; time: 0.5 h
Compound | remaining compound [%]
Cc1c(CN2C[C@H]3CC[C@@H](C2)NC3)oc2ccccc12 | 95.5
O=C(NC1(c2ccccc2F)CCCC1)c1cccc(N2CCCC2=O)c1 | 40.4
CCCSc1nc(OC)c(-c2ccccc2C)c(=O)n1C | 17.3

Further values, each from its own experiment
Structure (SMILES) | tested on | test | test system | setting | how to read | measurement | value
CCN[C@@H]1C[C@H](N)[C@@H](O[C@H]2OC(CN)=CC[C@H]2N)[C@H](O)[C@H]1O[C@H]1OC[C@](C)(O)[C@H](NC)[C@H]1O | Plasmodium berghei | inhibitor | Huh-7, liver stage | 10 µM, 24 h | baseline: untreated control | infection rate | 56.8%
COc1cc(C(=O)N2CCC(N3CCN(C)CC3)CC2)ccc1Nc1ncc2c(n1)N(C)c1ccccc1C(=O)N2C | Leucine-rich repeat serine/threonine-protein kinase 2 (LRRK2, Homo sapiens, UniProt Q5S007) | cell-free assay |  | 10 µM |  | remaining signal | 0%
COc1ccccc1N1CCN(CC(O)COc2cccc3ccccc23)CC1 (stereo not drawn) | mouse MPNST tumor cells | high-content nuclear imaging, measured: cell number |  | 10 µM, 12 h, mean of 2 replicates | baseline: plate mean, higher = more cells | nuclei count | 0.956 z-score and 2.7 z-score
CC1=C(/C=C/C(C)=C/C=C/C(C)=C\C(=O)O)C(C)(C)CCC1 | Plasmodium berghei | inhibitor | Huh-7, liver stage | 10 µM, 24 h | baseline: untreated control | infection rate | 96.3%
Cc1ccc(NC(=O)c2ccnc(C(F)(F)F)c2)cc1-c1cc(OCCO)nc(N2CCOCC2)c1 | Ribosomal protein S6 kinase beta-1 (RPS6KB1, Homo sapiens, UniProt P23443) | competitive binding, scanMAX |  | 1 µM, S6K1, 1000 nM |  | remaining binding | 100%
O=C1CCC(N2Cc3cc(C4CCN(Cc5ccccc5)CC4)ccc3C2=O)C(=O)N1 (stereo not drawn) |  |  | mouse, ICR, male, plasma | oral, 3.0 mg/kg |  | AUC(0-inf) | 539 ng·h/mL

For quick reference, copied from above (further values, each from its own experiment):
Structure (SMILES) | tested on | test | test system | setting | how to read | measurement | value
Cc1ccc(NC(=O)c2ccnc(C(F)(F)F)c2)cc1-c1cc(OCCO)nc(N2CCOCC2)c1 | Ribosomal protein S6 kinase beta-1 (RPS6KB1, Homo sapiens, UniProt P23443) | competitive binding, scanMAX |  | 1 µM, S6K1, 1000 nM |  | remaining binding | 100%
CCN[C@@H]1C[C@H](N)[C@@H](O[C@H]2OC(CN)=CC[C@H]2N)[C@H](O)[C@H]1O[C@H]1OC[C@](C)(O)[C@H](NC)[C@H]1O | Plasmodium berghei | inhibitor | Huh-7, liver stage | 10 µM, 24 h | baseline: untreated control | infection rate | 56.8%
O=C1CCC(N2Cc3cc(C4CCN(Cc5ccccc5)CC4)ccc3C2=O)C(=O)N1 (stereo not drawn) |  |  | mouse, ICR, male, plasma | oral, 3.0 mg/kg |  | AUC(0-inf) | 539 ng·h/mL
COc1cc(C(=O)N2CCC(N3CCN(C)CC3)CC2)ccc1Nc1ncc2c(n1)N(C)c1ccccc1C(=O)N2C | Leucine-rich repeat serine/threonine-protein kinase 2 (LRRK2, Homo sapiens, UniProt Q5S007) | cell-free assay |  | 10 µM |  | remaining signal | 0%
CC1=C(/C=C/C(C)=C/C=C/C(C)=C\C(=O)O)C(C)(C)CCC1 | Plasmodium berghei | inhibitor | Huh-7, liver stage | 10 µM, 24 h | baseline: untreated control | infection rate | 96.3%
